Published values gathered from unrelated publications.
Each numbered part is a random draw from the data of one study; scales do not carry over between parts.

Study 1 — method: RNA Bind-n-Seq; form: RNA; sample: in vitro; tested at: 200 nM; notes: whole 134-nt RNA, ends assumed; with: 150 mM KCl; reference: input library; reading: higher = stronger binding; measurement: log2 enrichment
Target: Ras GTPase-activating protein-binding protein 1, full length (G3BP1, Homo sapiens, UniProt Q13283)
UniProt Q13283, sequence (whole entry, looked up): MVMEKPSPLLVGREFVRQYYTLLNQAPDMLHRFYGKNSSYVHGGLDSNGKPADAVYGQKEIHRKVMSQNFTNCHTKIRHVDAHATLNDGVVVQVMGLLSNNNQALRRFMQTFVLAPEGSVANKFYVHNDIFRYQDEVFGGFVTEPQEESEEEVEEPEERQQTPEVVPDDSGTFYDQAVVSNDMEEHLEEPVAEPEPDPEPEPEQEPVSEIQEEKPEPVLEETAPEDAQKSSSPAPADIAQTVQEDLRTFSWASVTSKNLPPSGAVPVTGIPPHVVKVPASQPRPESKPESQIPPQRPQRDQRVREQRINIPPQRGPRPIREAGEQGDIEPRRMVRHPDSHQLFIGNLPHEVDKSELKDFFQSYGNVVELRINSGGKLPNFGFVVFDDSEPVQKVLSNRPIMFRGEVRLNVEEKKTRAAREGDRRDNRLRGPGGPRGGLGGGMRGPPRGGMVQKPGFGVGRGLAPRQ
Sequence = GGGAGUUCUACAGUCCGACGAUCCAAGUCCUGUGCUACACAUCGUAUGUACCGAAUCGGUUUUUGGUUUUUGGUUUGGAAAGUAUUAUGUUACGCCGUUCGGAUCUGCACUUCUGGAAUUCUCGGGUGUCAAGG; value = -1.1
Sequence = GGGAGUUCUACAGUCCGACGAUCCUGUGCUACACAUCGUAUGUACCGAAUCGGGGCCCCCCCGGGCCCCCCCGGGCCCCCCCGGGAAAGUAUUAUGUUACGCCGUUCGGAUCUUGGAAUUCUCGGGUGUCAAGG; value = -1.4
Sequence = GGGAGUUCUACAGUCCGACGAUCGUCCUGUGCUACACAUCGUAUGUACCGAAUCGGGGUGGGGAAAAAGGGGAAAAAGGGGAAAGUAUUAUGUUACGCCGUUCGGAUCUGCACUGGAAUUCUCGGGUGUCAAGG; value = 0.404
Sequence = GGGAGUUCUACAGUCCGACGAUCCCUGUGCUACACAUCGUAUGUACCGAAUCGGGGUUUUUUGGGUUUUUUGGGGUUUUUUGGAAAGUAUUAUGUUACGCCGUUCGGAUCUGCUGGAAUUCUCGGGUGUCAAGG; value = -0.577
Sequence = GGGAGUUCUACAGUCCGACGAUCAGUCCUGUGCUACACAUCGUAUGUACCGAAUCGGGCCCCCGGGCCCCCGGCCCCCGGGAAAGUAUUAUGUUACGCCGUUCGGAUCUGCACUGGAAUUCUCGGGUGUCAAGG; value = -0.954
Sequence = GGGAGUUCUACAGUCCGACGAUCUCCUCAAGUCCUGUGCUACACAUCGUAUGUACCGAAUCGGAGGUGGAAAGGAAAGUAUUAUGUUACGCCGUUCGGAUCUGCACUUCCAGCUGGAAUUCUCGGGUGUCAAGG; value = -0.824
Sequence = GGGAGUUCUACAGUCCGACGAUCGUCCUGUGCUACACAUCGUAUGUACCGAAUCGGUUUUUGGGGUUUUUGGGGUUUUUGGGAAAGUAUUAUGUUACGCCGUUCGGAUCUGCAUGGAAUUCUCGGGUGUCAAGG; value = -0.555
Sequence = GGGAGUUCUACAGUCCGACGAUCCCUGUGCUACACAUCGUAUGUACCGAAUCGGGGUGGGGAAAAAAAGGGGAAAAAAAGGGGAAAGUAUUAUGUUACGCCGUUCGGAUCUGCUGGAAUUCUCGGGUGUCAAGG; value = 0.105
Sequence = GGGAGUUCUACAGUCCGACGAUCUCCUCAAGUCCUGUGCUACACAUCGUAUGUACCGAAUCGGAGGAGGAGGGGAAAGUAUUAUGUUACGCCGUUCGGAUCUGCACUUCCAGCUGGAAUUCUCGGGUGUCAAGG; value = -0.393
Sequence = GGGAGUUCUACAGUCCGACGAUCUAAAUUCAUCUGAAAAUGGUGAGGACAGGCACAAACGCAAAGAAAGAAAGUCAUCAAGAGGCAGAAGUCACUCAAGAUCUAGGUCUCGUGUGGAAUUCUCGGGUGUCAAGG; value = -1.48

Study 2 — method: RNA Bind-n-Seq; form: RNA; sample: in vitro; tested at: 365 nM; reference: no-protein control; reading: higher = stronger binding; measurement: RBNS enrichment (R)
Target: RNA binding protein fox-1 homolog 2, RRM domain, GST-SBP tag (RBFOX2, Homo sapiens, UniProt O43251-10, residues 100-194)
Notes: natural RNA segment, single round, ends assumed
Construct (chain): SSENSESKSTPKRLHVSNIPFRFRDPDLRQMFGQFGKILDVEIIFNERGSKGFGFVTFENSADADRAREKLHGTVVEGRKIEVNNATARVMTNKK
Sequence = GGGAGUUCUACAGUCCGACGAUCUGUUCCUCACGUGUGGGACAGGACACAGAGCUGACUGAGCGUGGGACACUCCACAGCCUUCUCAUGACUUGUGAAGGAGGUUCACAGGAACGAGGGGUAUGUUUUAGAGCUGGAAUUCUCGGGUGCCAA; value = 0.437
Sequence = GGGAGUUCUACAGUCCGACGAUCGUAACACAUAGGGCAGGUACCUACUGAGGCACCCAGGCUUCUAAAAACUGUUCUCAGGACCUUGGGCUCUGGGCAGUCUGUCAGUACCAAGCCUUUAUGCCUAUGAGAACUGGAAUUCUCGGGUGCCAA; value = 0.39
Sequence = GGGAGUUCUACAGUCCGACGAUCAGGGGUCCCAGCAGAGGCCUGUGUCGUGUAACCCAGGGACUACAAGUGUCAGUGUGGGUAUCAACCUCAAAGUCAGGCACUUGAGCCAUGUGUGGUCCUCCUCCAUCUGGUGGAAUUCUCGGGUGCCAA; value = 0.331
Sequence = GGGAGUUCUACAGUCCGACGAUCGCUUUUUCAGAUUGUGUGGUAGCCAUAGGACCUGACCCAGUUUGUGCCUCCUGGGAUCCUCAUCCCCAAUCCUGCUCUUACAUAAACCUUUUUCUUGUUUUAGUAAUUUGUGGAAUUCUCGGGUGCCAA; value = 0.307
Sequence = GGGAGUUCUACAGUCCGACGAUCUUUAAUAUGUACAGUUAGUUUGCUCUGGAUUAGUAUAUAAGUACAUUUUAUUAGGGGUUGUGACAACAUUAUUAAACUUUUGUGUAUAUAAAGCCAGGUGUCUUAGCUAGUGGAAUUCUCGGGUGCCAA; value = 0.562
Sequence = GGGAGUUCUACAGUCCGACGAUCUCUACCUUGAUGUUUUUAAAAAAACACCCAUCUCCAGCUCACACACUGUUUUCUGGAAAUAAAGCCCUACUCUACAAAAAAAAUGAAGAUGGCUUGUGGGAAAAGAUCUCUGGAAUUCUCGGGUGCCAA; value = 0.332
Sequence = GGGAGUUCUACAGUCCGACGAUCAGAAGGAGUUGCUGACCAGUGCCCACCCCGGCAGCCCGGGAGGAACACAGGCAGCUCCUUUCCCUUCACGUGGUCUGCAGAGAGCAGGGUGAGCUGCCAGCUGCCCCUCUUGGAAUUCUCGGGUGCCAA; value = 0.202
Sequence = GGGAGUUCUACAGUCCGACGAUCAAAGCACAGUUGUAACUACCUGAAAUAUGAAGAUCCAGUUUCAUACAAACAUUUGUAUGACGUGAAUAGUUGAUGGCAUUUUUUUGUCAUGAAAAAAAUAAUGUAAAUCAUGGAAUUCUCGGGUGCCAA; value = 0.948
Sequence = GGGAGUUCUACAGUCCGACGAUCUGAAUGGGCUGGGGGUGGGGUGGCCUUCUCCAGGCCUGAGUGUUUUUGUGUCCAGCUCAGUAUCUGCAACAAGAAGUUUCCCACUUGUGGAUGUUUAGUGCAGCCACAGAUGGAAUUCUCGGGUGCCAA; value = 0.663

Study 3 — method: RNA Bind-n-Seq; form: RNA; sample: in vitro; tested at: not given; reference: input RNA pool; reading: higher = stronger binding; measurement: bound/input enrichment
Target: RING finger protein unkempt homolog, zinc fingers 1-6, GST-SBP tag (UNK, Homo sapiens, UniProt Q9C0B0, residues 30-357)
Notes: RNA with constant flanks, human-mouse chimeric sites, ends assumed
Residues (chain): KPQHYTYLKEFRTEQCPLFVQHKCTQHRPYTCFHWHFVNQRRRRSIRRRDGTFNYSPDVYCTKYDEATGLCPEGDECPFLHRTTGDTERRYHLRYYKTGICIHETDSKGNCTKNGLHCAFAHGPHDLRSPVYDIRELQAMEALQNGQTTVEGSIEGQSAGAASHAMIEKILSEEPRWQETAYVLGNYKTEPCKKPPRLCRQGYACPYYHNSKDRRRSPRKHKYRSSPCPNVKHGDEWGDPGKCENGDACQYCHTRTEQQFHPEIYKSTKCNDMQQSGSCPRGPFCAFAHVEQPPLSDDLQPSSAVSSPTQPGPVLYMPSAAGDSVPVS
Sequence = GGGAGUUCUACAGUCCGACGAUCCUGGGUAUCAUCUCUCGUGCUGUUAGACACCUGUUCAAGAGUAUUGAUGAGAAAAAGACCUCAGCGAUUAAAAAUGGGCUGCCCCCUCCUGAAUUCAAAGUGAAUGCCCAGUUCCUAGAGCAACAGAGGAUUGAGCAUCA; value = 0.277 ratio
Sequence = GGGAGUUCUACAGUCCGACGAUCUCCCAAAUCCAGCAGCUCCUUGAAAUAUUGAGACAAACACUCCACACACAGGGAAGGCGAUAACAUUGUACAUUGGUUUACAUUUUUUCCCCCUGUGGAUUUUUCUAGAGGUCAUAGUGCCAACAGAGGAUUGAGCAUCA; value = 0.419 ratio
Sequence = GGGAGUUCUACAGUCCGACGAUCUCUUAACGUCCAUUUAAAACUUAUUUUUAUAGCUAGAUAAAUAUUGUUAGUCUUAGACAAUAGCUCACAUUUUUUGAGAAGCAUGCCCUCCCUGUCCAUUUGUCUUACAAUAACACUCAGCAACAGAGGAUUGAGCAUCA; value = 63.7 ratio
Sequence = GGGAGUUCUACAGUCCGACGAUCCUGGCCUGGCCCUCCCCAGGGGCCUCCUUUCGUAUAGUCACUGCUUCUGCAUCAGAUAUUUUUAGCUCCAAGUCCUGACUGGGUGGGGCACCCAUUUCAGGCAGAAGGUUUUGGUACCCUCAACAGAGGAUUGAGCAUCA; value = 1.56 ratio
Sequence = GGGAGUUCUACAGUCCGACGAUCUUAUCCAAGACUCAACGAAAGACUCCAACCGUUAUUCAUAAACAUUAUCAAAUUCAUCGGAUUCGACAUUUUUAUAUGAGAAAAGUCAAAUUUACUCAACAGAAUUACCAUGACAGACUGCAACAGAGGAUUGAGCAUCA; value = 0.385 ratio
Sequence = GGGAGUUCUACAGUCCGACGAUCAAAGUGAUGACUAUGUUUGUCCAACGACAGGUAUUUUCUGAGAACAAAGAUGAGAUUGCGUUAGUCCUCUAUGGCACAGAUGGCACUGAUAAUGCCCUUGCUGGCAAGGAUCAGUAUCAGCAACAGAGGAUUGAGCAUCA; value = 0.095 ratio
Sequence = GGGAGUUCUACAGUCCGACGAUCUCGGAUGAGGUGCUGGGUCACUUUUCAUAUCCAGAUCCUUCACAGUGGACAGAUGAAGAACUGGGAAUCCCUCCUGAUGACGAGGACUGACACUGUAGACUCAGCCUACGAGUAGGAGCACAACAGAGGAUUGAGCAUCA; value = 0.37 ratio
Sequence = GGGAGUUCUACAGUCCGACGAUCCUGGCCUGGCCCUCCCCUCUAGUGACCUUUCGUAUAGUCACUGCUUCUGCAUCAGAUACUUUCAGCUGCAACUCCCUACUGGGUGGGGCACCCAUUUCAGGCAGAAGGUUUUGGUACCCUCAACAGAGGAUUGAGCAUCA; value = 0.391 ratio

Study 4 — organism: Saccharomyces cerevisiae; read-out: growth after mating arrest; method: competitive growth deep sequencing; form: peptide; notes: strain without Cln2 fusion; reading: direction not given; measurement: enrichment score
Sequence = KVKRRLDLDIDGLQKE; value = 0.293
Sequence = ARKRLELGNLGNPQ; value = -0.413
Sequence = PPKPLKKLRFDIEGSD; value = -0.159
Sequence = GFGFLLFICKLTF; value = -0.473
Sequence = LRRQLSFSED; value = 0.263
Sequence = RRVLCFDS; value = -0.35
Sequence = LRRKLFLDGNGSIS; value = -0.418
Sequence = RKLDLEGIGR; value = 0.48
Sequence = RKLHFEDEVT; value = 0.261

Some of these lines once more (study 3):
Sequence = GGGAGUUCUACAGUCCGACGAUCAAAGUGAUGACUAUGUUUGUCCAACGACAGGUAUUUUCUGAGAACAAAGAUGAGAUUGCGUUAGUCCUCUAUGGCACAGAUGGCACUGAUAAUGCCCUUGCUGGCAAGGAUCAGUAUCAGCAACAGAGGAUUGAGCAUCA; value = 0.095 ratio
Sequence = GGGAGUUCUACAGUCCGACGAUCUCCCAAAUCCAGCAGCUCCUUGAAAUAUUGAGACAAACACUCCACACACAGGGAAGGCGAUAACAUUGUACAUUGGUUUACAUUUUUUCCCCCUGUGGAUUUUUCUAGAGGUCAUAGUGCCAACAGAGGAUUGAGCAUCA; value = 0.419 ratio
Sequence = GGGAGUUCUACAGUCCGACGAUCCUGGCCUGGCCCUCCCCAGGGGCCUCCUUUCGUAUAGUCACUGCUUCUGCAUCAGAUAUUUUUAGCUCCAAGUCCUGACUGGGUGGGGCACCCAUUUCAGGCAGAAGGUUUUGGUACCCUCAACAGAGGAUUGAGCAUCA; value = 1.56 ratio
Sequence = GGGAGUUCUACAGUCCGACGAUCUCUUAACGUCCAUUUAAAACUUAUUUUUAUAGCUAGAUAAAUAUUGUUAGUCUUAGACAAUAGCUCACAUUUUUUGAGAAGCAUGCCCUCCCUGUCCAUUUGUCUUACAAUAACACUCAGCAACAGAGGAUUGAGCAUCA; value = 63.7 ratio
